Values quoted from earlier work as cited in several papers.
Each numbered part shows a few of the values that one paper quotes. Values joined by “and” are separate records of one study, mostly repeats; a detail may differ.

Set 1 — target: human PDE10A; technique: biochemical
| SMILES | Ki |
| --- | --- |
| COCCOc1nc(-c2ccc(Cl)nc2)nc2c1CN(C(=O)c1ncn3ccccc13)CC2 | 1 nM |
| COCCc1ccc(-c2c(C)nc3c(N4CCOCC4)ccnn23)cn1 | 13 nM |
| CC(C)CC(=O)N1CCc2nc(-c3ccc(Br)cc3)nc(N(C)Cc3ccccc3)c2C1 | 522 nM |

Set 2 — organism: Toxoplasma gondii; effect on: parasite growth; concentration: concentration not given; setting: drug repurposing screen
| Compound | activity class |
| --- | --- |
| Cl.NC(N)=NC(=O)c1nc(Cl)c(N)nc1N.O | inactive |
| CCN1CCCC1CNC(=O)c1cc(S(=O)(=O)CC)c(N)cc1OC (stereo not shown) | inactive |
| COc1cc([C@@H]2c3cc4c(cc3[C@@H](O[C@@H]3O[C@@H]5CO[C@@H](C)O[C@H]5[C@H](O)[C@H]3O)[C@H]3COC(=O)[C@H]23)OCO4)cc(OC)c1O | inactive |

Set 3 — SMILES: CN(C)CC/C=C1/c2ccccc2Sc2ccc(Cl)cc21; cell line: MCF7; technique: microarray; concentration: concentration not given
| item | baseline | fold change |
| --- | --- | --- |
| ISG20 mRNA (probe 33304_at) | vehicle (DMSO) | 1.74 |
| SYNGR3 mRNA | DMSO | 1.4 |
| MAFF mRNA (probe 36711_at) | vehicle (DMSO) | 7.83 |

Set 4 — cell line: MIA PaCa-2; item: phospho-ERK
SMILES: C=CC(=O)N1CCN(c2ncnc3c(F)c(-c4c(O)cccc4F)c(Cl)cc23)CC1
| concentration | ERK phosphorylation |
| --- | --- |
| 123 nM | 87.8% and 93.6% |
| 4.6 nM | 101% and 98.9% |
| 1.11 µM | 36.9% and 31.4% |
| 1.5 nM | 101% and 102% |

A few entries again (set 4):
| concentration | ERK phosphorylation |
| --- | --- |
| 4.6 nM | 101% and 98.9% |
